Published values of several laboratories.
Values joined by “and” are separate records of one study, mostly repeats; a detail may differ.

SMILES	test	test system	setting	AUC(0-tau)
Nc1ccn([C@@H]2O[C@H](CO)[C@@H](O)[C@@H]2O)c(=O)n1		human	subcutaneous, 20 mg, cycle 1 day 2, given alone	70.1 ng·h/mL
CC(C)C[C@H](NC(=O)[C@H](CC(C)C)NC(=O)[C@H](Cc1c[nH]c2ccccc12)NC(=O)[C@H](CCC(=O)O)NC(=O)[C@@H](NC(=O)[C@H](Cc1ccccc1)NC(=O)[C@H](CCC(=O)O)NC(=O)[C@H](CCCCNC(=O)COCCOCCNC(=O)COCCOCCNC(=O)CC[C@H](NC(=O)CCCCCCCCCCCCCCCCCCC(=O)O)C(=O)O)NC(=O)[C@H](C)NC(=O)[C@H](CCCCN)NC(=O)[C@H](CCCCN)NC(=O)[C@H](CCC(=O)O)NC(=O)[C@H](CC(=O)O)NC(=O)[C@H](CC(C)C)NC(=O)[C@H](Cc1ccc(O)cc1)NC(=O)[C@H](CCCCN)NC(=O)[C@H](CO)NC(=O)[C@H](Cc1ccc(O)cc1)NC(=O)[C@H](CC(=O)O)NC(=O)[C@H](CO)NC(=O)[C@@H](NC(=O)[C@H](Cc1ccccc1)NC(=O)[C@@H](NC(=O)CNC(=O)[C@H](CCC(N)=O)NC(=O)C(C)(C)NC(=O)[C@@H](N)Cc1c[nH]cn1)[C@@H](C)O)[C@@H](C)O)C(C)C)C(=O)N[C@@H](CCC(=O)O)C(=O)NCC(=O)NCC(=O)N1CCC[C@H]1C(=O)N[C@@H](CO)C(=O)N[C@@H](CO)C(=O)NCC(N)=O		human, plasma	subcutaneous, 16 mg weekly, week 20, cohorts 1 and 2	689000 ng·h/mL
CCOc1c([C@H](C)n2nc(C)c3c(N)ncnc32)cc(Cl)c(F)c1[C@@H]1CNC(=O)C1		human, DLBCL, plasma	oral, 20 mg, day 15, geometric mean	13.5 µM·h
CCN1CCN(Cc2ccc(Nc3ncc(F)c(-c4cc(F)c5nc6n(c5c4)[C@H](C)CCC6)n3)nc2)CC1		human, Phase Ib patients, plasma	300 mg, multiple doses, mean, together with: fulvestrant	7770 ng·h/mL
O=C(O)CCC(=O)O.[2H]C([2H])([2H])Oc1cc(C)c2[nH]ccc2c1CN1CC[C@@H](C2CC2)C[C@H]1c1ccc(C(=O)O)cc1		human, plasma	100 mg twice daily, day 1, multiple ascending dose, geometric mean	15700 ng·h/mL
Cc1cc(/C=C/C#N)cc(C)c1Nc1ccnc(Nc2ccc(C#N)cc2)n1		human, haemodialysis patients, plasma	oral, dose not given, steady state, fixed-dose combination	1700 ng·h/mL
Cc1ncnc2c1ccn2[C@@H]1C[C@H](Oc2cc(C(F)F)c(F)c3c2CNCC3)[C@@H](O)[C@H]1O		human	oral, 1 mg twice daily	201 ng·h/mL and 98.9 ng·h/mL
C[C@H]1CNCCCN1S(=O)(=O)c1cccc2cncc(F)c12		human, male, plasma	ocular instillation, 1 drop per eye twice daily, day 8	0.17 ng·h/mL
CCCCOCCOc1ccc(-c2ccc3c(c2)/C=C(/C(=O)Nc2ccc([S@@+]([O-])Cc4cncn4CCC)cc2)CCCN3CC(C)C)cc1		human, moderate hepatic impairment, plasma	oral, 150 mg, day 1, geometric mean	4400 ng·h/mL
Cc1noc(C)c1-c1cc(C(O)(c2ccccn2)c2ccccn2)c2nc(C3CC3)[nH]c2c1		human patients, fasted, plasma	oral, 6 mg once daily, cycle 1 day 15, together with: enzalutamide once daily	701 ng·h/mL
Cc1cc(C)c(CNC(=O)c2cc(Cl)c3c(c2C)O[C@@](C)([C@H]2CC[C@H](N(C)C)CC2)O3)c(=O)[nH]1		human, NHL patients, plasma	oral, 200 mg/day, cycle 1 day 1, once daily	14100 ng·h/mL
Cl.[2H]C([2H])([2H])CC(=O)c1cnc(NC(=O)C2CC2)cc1Nc1cccc(-c2ncn(C([2H])([2H])[2H])n2)c1OC	geometric mean	human	oral, 20 mg once daily, day 1, fasted, liquid, multiple dose	1130 ng·h/mL
CN1CC[C@@H](NC(=O)Nc2ccc(C#N)cc2)C[C@@H]1c1nc2ccccc2[nH]1		human	oral, 100 mg, cycle 1 day 21, given alone	15400 ng·h/mL
COC[C@@H](c1ccc(C(F)(F)F)cc1)N1CCN(C2(C)CCN(C(=O)c3c(C)ncnc3C)CC2)C[C@@H]1C		human	oral, 15 mg once daily, steady state, population PK, together with: ritonavir	3390 ng·h/mL
CC(C)NC(=O)COc1cccc(-c2nc(Nc3ccc4[nH]ncc4c3)c3ccccc3n2)c1		human, male, fed, plasma	oral, 200 mg once daily, day 8, geometric mean, together with: raltegravir	13000 ng·h/mL
N#CCNC(=O)c1ccc(-c2ccnc(Nc3ccc(N4CCOCC4=O)cc3)n2)cc1		healthy human volunteers, plasma	100 mg momelotinib once daily, day 7, fed, momelotinib alone	1780 ng·h/mL
C[C@@H]1CCO[C@H]2Cn3cc(C(=O)NCc4ccc(F)cc4F)c(=O)c(O)c3C(=O)N12		human, haemodialysis patients, plasma	oral, dose not given, steady state, fixed-dose combination	78100 ng·h/mL
